Experimental data from different studies.
Numbers after ± are the reported error.

Compound	assay	test system	conditions	tissue uptake [%ID/g]
COc1ccc(C)cc1NC(=O)OC1CC2CCCC(C1)N2Cc1ccc(CC[18F])cc1 (stereo not shown)		BALB/c mice, EMT6 tumour, kidney	30 min	16.3 ± 1.35
COc1cc2ccnc(Cc3ccc(O[11CH3])c(OC)c3)c2cc1OC		Sprague-Dawley rats, heart	intravenous, 0.08333 h	0.325 ± 0.077
CN[C@](C)(C[18F])C(=O)O		SCID mouse A549 xenograft, brain	120 min, post injection	0.2 ± 0.02
C=Cc1cc(O)cc2nc(-c3ccc(O)c([76Br])c3)oc12		female C57BL/6 mouse, uterus	3 h, high dose, with: estradiol 20 µg blocking	0.13 ± 0.02
CCCC[C@H](NC(=O)CN1CCC(NC(=O)CN2CCC(NC(=O)CN3CCN(CC(=O)O)CCN(CC(=O)O)CCN(CC(=O)O)CC3)CC2)CC1)C(=O)N[C@H]1CC(=O)NCCCC[C@@H](C(N)=O)NC(=O)[C@H](Cc2c[nH]c3ccccc23)NC(=O)[C@H](CCCNC(=N)N)NC(=O)[C@@H](Cc2ccccc2)NC(=O)[C@H](Cc2c[nH]cn2)NC1=O [gallium-68 labelled]		C57BL/6J mice male B16-F10 tumour, bone	1 h post injection, unblocked	0.2
N=C(N)NCc1ccc(C(=O)NCCCC[C@H](NC(=O)N[C@@H](CCC(=O)O)C(=O)O)C(=O)O)cc1[131I]		SCID mouse, PC-3 xenografts, stomach	21 h	0.17 ± 0.21
CC(C)C[C@@H](NC(=O)[C@@H](CCCNC(=N)N)NC(=O)[C@@H](Cc1c[nH]cn1)NC(=O)[C@@H](Cc1c[nH]c2ccccc12)NC(=O)[C@@H](Cc1c[nH]cn1)NC(=O)[C@@H](Cc1ccccc1)NC(=O)[C@H](NC(=O)[C@@H](Cc1ccc(O)cc1)NC(=O)CNC(=O)CNC(=O)CCOCCOCCOCCNC(=O)CN1CCN(CC(=O)O)CCN(CC(=O)O)CC1)[C@H](C)O)C(=O)N[C@H](CC(N)=O)C(=O)N1CCC[C@@H]1C(=O)O [gallium-68 labelled]	γ-counting	male C57BL/6 mice, spleen	intravenous, 1.85 MBq, 60 min	1.99 ± 0.48
O=C(c1ccc(F)cc1)C1CCN(C2Cc3c(cccc3OCC[18F])CC2O)CC1 (single isomer, unassigned; (-))		Sprague-Dawley rat, male, blood	intravenous, dose not given, 60 min	0.338 ± 0.088
CCNc1cc2[o+]c3cc(NCC)c(C)cc3c(-c3ccccc3C(=O)OCCOCC[18F])c2cc1C		rat, skin	15 min	0.13 ± 0.04
N=C(N)NCc1ccc(C(=O)NCCCC[C@H](NC(=O)CCCCCCC(=O)NCCCC[C@H](NC(=O)N[C@@H](CCC(=O)O)C(=O)O)C(=O)O)C(=O)O)cc1[131I]		SCID mouse, PC-3 xenografts, heart	1 h	0.46 ± 0.18

A few entries again:
Compound	assay	test system	conditions	tissue uptake [%ID/g]
O=C(c1ccc(F)cc1)C1CCN(C2Cc3c(cccc3OCC[18F])CC2O)CC1 (single isomer, unassigned; (-))		Sprague-Dawley rat, male, blood	intravenous, dose not given, 60 min	0.338 ± 0.088
